Experimental data collected from several papers.
A part holds a random share of what one study measured. Substitutions count along the parent as printed.

Study 1 — method: aptamer microarray, sandwich; form: DNA with 2'F-ANA; matrix: in vitro; concentration: 200 nM; together with: Cy3 exosite-II aptamer, 400 nM; direction: higher = stronger binding; measurement: mean fluorescence intensity; sequence: GGTTGGTGTGGTTGG
Target: Prothrombin, mature alpha-thrombin (F2, Homo sapiens, UniProt P00734)
Setting: whole 15-mer aptamer, many near background
2'F-ANA at 4 5 11 14 15: 51.6 a.u.
2'F-ANA at 4 9 11 12: 415 a.u.
2'F-ANA at 1 3 5 6 7 11 12 14 15: 45.1 a.u.
2'F-ANA at 7 8 10 11 13 14 15: 123 a.u.
2'F-ANA at 2 5 6 8 10 11 12 13 15: 47.4 a.u.
2'F-ANA at 7 12 14: 316 a.u.
2'F-ANA at 4 6 9 10 11: 75 a.u.
2'F-ANA at 2 3 5 6 7 8 9 12 13 15: 150 a.u.
2'F-ANA at 1 2 3 6 7 11 13: 146 a.u.
2'F-ANA at 2 7 8 10 11 14: 85.6 a.u.
2'F-ANA at 2 3 9 10 13 14 15: 261 a.u.
2'F-ANA at 1 3 4 5 6 8 10 13 14 15: 67.9 a.u.
2'F-ANA at 1 2 3 4 7 10 12 14: 52.5 a.u.
2'F-ANA at 1 4 6 7 8 9 11: 107 a.u.
2'F-ANA at 1 2 3 4 6 7 8 12: 350 a.u.
2'F-ANA at 1 5 6 7 9 10 13 14 15: 55.4 a.u.

Study 2 — method: Sort-seq; item: YFP reporter; matrix: E. coli; setting: PhoQ-PhoP variant library; together with: 10 µM Mg2+; baseline: high Mg2+ state; direction: higher = stronger signaling; measurement: fold induction
Substance: PhoQ, residues 284 288 289 292 302 303 TTCLQL
PhoP, residues 12 14 15 18 19 QYFSL (Escherichia coli, UniProt P23836): 13.2
PhoP, residues 12 14 15 18 19 NYFRM (Escherichia coli, UniProt P23836): 10.6
PhoP, residues 12 14 15 18 19 TQALL (Escherichia coli, UniProt P23836): 2.92

Study 3 — method: RNA Bind-n-Seq; form: RNA; matrix: in vitro; concentration: 365 nM; baseline: no-protein control; direction: higher = stronger binding; measurement: RBNS enrichment (R)
Target: RNA binding protein fox-1 homolog 2, RRM domain, GST-SBP tag (RBFOX2, Homo sapiens, UniProt O43251-10, residues 100-194)
Setting: natural RNA segment, single round, ends assumed
Residues (chain): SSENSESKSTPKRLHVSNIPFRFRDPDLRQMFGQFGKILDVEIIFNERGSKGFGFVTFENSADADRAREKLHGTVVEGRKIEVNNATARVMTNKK
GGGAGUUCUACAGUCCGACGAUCAUGCUUUGUGUAAUUUAUAACAAGGAUUUUUUUUUUAGCUUUGUUAACUGUGAAUUCACCCCUCCUCCUCCACUGCAUAUUUAAAGCAUGUGUUCACACUGUGUGUAAACUGGAAUUCUCGGGUGCCAA: 2.06
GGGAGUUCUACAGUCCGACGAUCUCUGAGAAGUGCAGGGGAGACAAAUGAAUGCAGUGUCCAUCCAGCUCUGGGUUUUCUUUAUCCUGCCUCCCGAGACUUCUGACCCCCCUUUCCCAGCUUCAGAUCUUGGGUGGAAUUCUCGGGUGCCAA: 2.09
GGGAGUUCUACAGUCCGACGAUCCAGGAGGGCCUGUAGAUAACCCUUCCAUUUCCUUCAUCUCAUCCAGUCUGUAGGGAUACAUUUUUCUGUGGUUGGUUUUCUUCAGCUAAGAGUCGCUGUCAGCAGGAGCUUGGAAUUCUCGGGUGCCAA: 0.281
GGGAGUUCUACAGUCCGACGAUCUCCUUUUGCAGGAGUGGCUGUACCUGCAGAAAGCCCAGGGGUCCACAGUACAGUGCAGGAGAAGCAGCUGAGUUGGCCUGGUCUAAGGAUACCCCCUAGCAAACUUGGCCUGGAAUUCUCGGGUGCCAA: 0.319
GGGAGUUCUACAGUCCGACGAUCAGGCUCAAGGCUGUGCAGGCACAUAGGCUGGUGGCCUUGGGCCUUGGGGCUCAGCCACAGCCUGACACAGUGCUCGACCUUGAUAGCAUGGGGCCCCUGGCCCAGAGUUGUGGAAUUCUCGGGUGCCAA: 2.11
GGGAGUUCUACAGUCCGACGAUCUAAUUUUAAUUUUAUUUUAUACAACGUGUAGACGGUUCCCUGUUCUCUGCAUUUAGAAGUAUACACAGUACAACUGUUAAUUCUGUAAGUAAUUUUUAUAAUUAUGAUGUUGGAAUUCUCGGGUGCCAA: 1.03
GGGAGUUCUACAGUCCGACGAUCAAAUAUGUGAUUCCAGGCUUAAGAAAUUGAUUAUAUUUUAAAAUAAUUAUUUUUUUAAAAACGUAAUUUGUUUUUAAAAGAUGAGUCUCCAUUCAUUGGCUAAUCCAUACUGGAAUUCUCGGGUGCCAA: 0.828
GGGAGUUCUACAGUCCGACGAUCGAAGCAGGAGUUCUCAGAGGAACACGUCCUUCCAUCCAGGAGAAAGUGACUUUCUGUCUGCGGCUGCUCCACAUCCCGGGCCUGCUUUUCAAGGGUAUCUGUUCUGAUACUGGAAUUCUCGGGUGCCAA: 0.277

Study 4 — target: CCNB1, cyclin fold, Cln2 fusion (human); method: yeast growth competition, sequencing; matrix: yeast; setting: strong parent motif; baseline: not given; direction: higher = stronger binding; measurement: normalised enrichment score
Starting sequence: INSM1 docking peptide (human); PKAIRKLHFEDEV; partner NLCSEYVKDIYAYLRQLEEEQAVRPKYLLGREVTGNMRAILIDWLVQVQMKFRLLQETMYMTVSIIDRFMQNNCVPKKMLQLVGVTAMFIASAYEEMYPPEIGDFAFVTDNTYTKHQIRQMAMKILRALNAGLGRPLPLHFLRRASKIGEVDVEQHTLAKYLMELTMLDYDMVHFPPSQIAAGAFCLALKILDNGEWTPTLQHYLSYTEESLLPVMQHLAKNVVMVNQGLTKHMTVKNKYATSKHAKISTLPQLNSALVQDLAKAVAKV
PKAVRKLHFEDEV [I4V]: 3.13
PKCIRKLHFEDEV [A3C]: 4.26
PKAIEKLHFEDEV [R5E]: 0.542
PYAIRKLHFEDEV [K2Y]: 3.22
PKAIRYLHFEDEV [K6Y]: 0.726
PKAIRQLHFEDEV [K6Q]: 2.46
PKAIRKLHFEDYV [E12Y]: 1.06
PKAIRKLHFEDPV [E12P]: 1.43
PKMIRKLHFEDEV [A3M]: 1.79
PKAIRKLHFEWEV [D11W]: 0.584
PRAIRKLHFEDEV [K2R]: 2.42
PKAIRKLIFEDEV [H8I]: 3.48
PKAIRKLHQEDEV [F9Q]: 0.181
PKAIRILHFEDEV [K6I]: 0.465

Repeated from above (study 4):
PKAIRKLHFEDYV [E12Y]: 1.06
PKAIRKLHFEDPV [E12P]: 1.43
PKMIRKLHFEDEV [A3M]: 1.79
PKAIRKLHFEWEV [D11W]: 0.584
PRAIRKLHFEDEV [K2R]: 2.42
PKAIRKLIFEDEV [H8I]: 3.48
PKAIRKLHQEDEV [F9Q]: 0.181
